Measured values pooled from the literature.
Compare with care: the assays were run in different laboratories. Several values in a cell are separate wells, animals, samples, runs or records. Numbers after ± are the reported error.

SMILES | assay | system | setting | scale | endpoint | value
CO[C@@H]1[C@H](O)[C@@H](CO)O[C@H]1n1c([N+](=O)[O-])nc2c(=O)[nH]c(N)nc21 | depurination, RP-HPLC | citrate-phosphate buffer 0.5 mM | 1260 min, pH 5, 37 °C |  | nucleoside remaining fraction | 0.574
C[C@H]1C=C(Cc2ccccc2)C(=O)O1 | soil adsorption | clay loam soil | pH 6.8, organic carbon 0.5 % |  | KFoc | 301 mL/g
CCN1CCN(Cc2ccc(NC(=O)c3ccc(C)c(NC(=O)c4cncc(-c5cccs5)c4)c3)cc2C(F)(F)F)CC1 | LC-MS/MS | C57BL/6 mouse, plasma | intraperitoneal, 10 mg/kg single dose, 2 h |  | mean plasma concentration | 186 ng/mL
Cn1ncnc1[C@H]1c2n[nH]c(=O)c3cc(F)cc(c23)N[C@@H]1c1ccc(F)cc1 |  | human patients, plasma | oral, 600 µg/m2 twice daily day 1, day 5, dose level DL6, median, together with: temozolomide 55 mg/m2 daily days 2-6 |  | AUC(0-8h) | 76.1 ng·h/mL
CCN1/C(=C/C(C)=O)Sc2ccc(F)cc21 |  | cynomolgus monkey | oral, 100 mg/kg, 2 h post-dose | relative to: pre-dose | PR interval change | 102 ± 2%
CNc1ccc(-c2nc3ccc(O)cc3s2)cc1 [carbon-11 labelled] | ex vivo biodistribution | APP/PS1 mouse, AD model, cerebellum | intravenous, 30 min |  | SUV | 0.173 ± 0.09
Cc1ccc(S(=O)(=O)N(CC#N)C(=O)Cc2cc(C(F)(F)F)cc(C(F)(F)F)c2)cc1 | chemical stability, HPLC-MS | borate buffered saline | pH 10.2, no N-acetyl-lysine |  | degradation rate constant | 4 h⁻¹
CC(C)C[C@@H]1NC(=O)CN(C)C(=O)[C@H](Cc2ccccc2)NCc2ccc(n2C)CNC1=O | PAMPA | lecithin in dodecane | 100 µM, 17 h, pH 6.4, 37 °C |  | -log Pe | 5.93
COc1cc(N2CCC(N3CCN(C)CC3)CC2)ccc1Nc1ncnc(Nc2ccccc2S(=O)(=O)C(C)C)n1 |  | human, plasma | oral, 75 mg, day 28 |  | Cmax | 258 ng/mL
Cc1nc(-c2ccc(OCC(C)C)c(C#N)c2)sc1C(=O)O |  | healthy Chinese subjects | oral, 40 mg, fed |  | subjects with neutrophil count decreased | 5%
CN(Cc1cnc2nc(N)nc(N)c2n1)c1ccc(C(=O)N[C@@H](CCC(=O)O)C(=O)O)cc1 | lipid PAMPA |  | 10 µM, 16 h, pH 7.4, 25 °C |  | -log Pe | > 8.99
c1ncc(-c2ccc(C3CCCCC3)cc2)cn1 | liver microsome stability | human liver microsomes | 1 µM, without NADPH |  | hepatic clearance | 14 mL/min/kg
CNC(=O)c1ccc(-c2cnc3ncc(Cc4ccc5ncccc5c4)n3n2)cc1F | item: Dyspepsia, all grades | cancer patients | oral, dose not given, dose escalation, any causality |  | patients with adverse event | 8%
O=C(NCC1CCOCC1)c1ccc(C2CCCCC2)cc1 | liver microsome stability | mouse liver microsomes | 1 µM |  | hepatic clearance | 82 mL/min/kg
C=CC[C@@H]1/C=C(\C)C[C@H](C)C[C@H](OC)[C@H]2O[C@@](O)(C(=O)C(=O)N3CCCC[C@H]3C(=O)O[C@H](/C(C)=C/[C@@H]3CC[C@@H](O)[C@H](OC)C3)[C@H](C)[C@@H](O)CC1=O)[C@H](C)C[C@@H]2OC |  | Wistar Kyoto rat, male, plasma | ip, 0.5 mg/kg/day, day 18 |  | plasma Mg2+ | 0.65 ± 0.04 mmol/L
CN1C(=O)[C@@H](NC(=O)c2nnc(Cc3ccccc3)[nH]2)COc2cccnc21 | phase I multiple ascending dose | human, male and female | oral, 100 mg, 14 days |  | TEAE leading to permanent discontinuation | 0%
Nc1ncnc2c1ncn2[C@H]1C[C@@H]2OP(=O)(O)OC[C@H]3O[C@@H](n4cnc5c(N)ncnc54)C[C@@H]3OP(=O)(O)OC[C@H]2O1 |  | non-tumor-bearing mice, serum | intravenous, 1 mg/kg, toxicity study |  | creatine kinase | 2150 ± 721 U/L
OC[C@H]1O[C@@H](c2ccc(F)c(Cc3cc4ccccc4s3)c2)[C@H](O)[C@@H](O)[C@@H]1O |  | Japanese patients, type 1 diabetes | oral, 50 mg/day, onset day 8 | relative to: patients | hypoglycaemia-related adverse event | 4%
CCO[C@H]1CCN(Cc2c(OC)cc(C)c3[nH]ccc23)[C@H](c2ccc(C(=O)O)cc2)C1 |  | human moderate hepatic impairment, plasma | oral, 200 mg single dose, mean |  | unbound AUCinf | 5990 ng·h/mL
NS(=O)(=O)c1cccc(-c2ccc(C3CCCCC3)cc2)c1 | liver microsome stability | rat liver microsomes | 1 µM |  | hepatic clearance | 34 mL/min/kg
CC(C)(C(=O)N1CCOc2c(C#N)cncc2C1)C(F)F | item: Investigations | human | oral, 20 mg twice daily, 14 days, multiple ascending dose |  | subjects with adverse event | 12.5%
CC(C)NCCCC[C@@H]1NC(=O)[C@H](Cc2ccc(O)cc2)NC(=O)[C@H](Cc2ccccc2)NC(=O)CC[C@H](C(=O)N[C@@H](CCCCNC(C)C)C(=O)N[C@@H](CCCCNC(=O)[C@H](CCC(=O)O)NC(=O)[C@H](CCC(=O)O)NC(=O)[C@H](CCC(=O)O)NC(=O)CN2CCN(CC(=O)O)CCN(CC(=O)O)CCN(CC(=O)O)CC2)C(N)=O)NC(=O)CNC(=O)[C@H](Cc2ccc3ccccc3c2)NC(=O)[C@@H](CCCNC(=N)N)NC1=O [gallium-68 labelled] |  | mouse with PC-3 xenograft, spleen | intravenous, 1 h |  | tissue uptake | 0.39 %ID/g
O=C(O)CCC(=O)O.[2H]C([2H])([2H])Oc1cc(C)c2[nH]ccc2c1CN1CC[C@@H](C2CC2)C[C@H]1c1ccc(C(=O)O)cc1 | ECG | healthy Chinese subjects | oral, 50 mg twice daily, multiple ascending dose |  | TEAE T wave abnormality | 12.5%

SMILES | assay | system | setting | scale | endpoint | value
CCCCOC(=O)N1CCN(C(=O)[C@H](CP(=O)(O)O)NC(=O)c2cc(N3CC[C@H](OC)C3)nc(-c3ccccc3)n2)CC1 | item: Chloride | human, blood | 8 mg, 24 h |  | change from baseline | 0.2 ± 2.2 mmol/L
NC1(C(=O)N[C@@H](CCO)c2ccc(Cl)cc2)CCN(c2nc[nH]c3nccc2-3)CC1 |  | metastatic CRPC patients | dose not given, any grade, treatment-related, all doses, together with: enzalutamide 160 mg daily |  | incidence of Neutropenia | 13.3%
O=C(COCC(F)F)Nc1ccc(C2CCCCC2)cc1 | liver microsome stability | cynomolgus liver microsomes | 1 µM |  | hepatic clearance | 35 mL/min/kg
N#Cc1ccc(Nc2nc(N)cc(Oc3c(F)cc(-c4ccc(C#N)cc4)cc3F)n2)cc1 |  | human plasma, diluted in PBS | 1.00 µM, 1.00 h, 37 °C |  | remaining compound | 94%
O=C(Nc1nc2cccc(-c3ccc(CN4CCS(=O)(=O)CC4)cc3)n2n1)C1CC1 | item: dysgeusia | human rheumatoid arthritis patients | oral, 150 mg once daily, 4 weeks, regardless of relatedness |  | treatment-emergent adverse events | 0%
Cn1nc2c(=O)n(C3CC3)cnc2c1[C@](O)(c1cnc(C(F)(F)F)c(Cl)c1)C(F)(F)F |  | humanized SCID mice, blood | 3 mg/kg once daily, 6 days, infected |  | AUC(0-96 h) | 90.8 µM·h
Cc1ccc(C(=O)N(CCCN)C(c2nc3snc(C)c3c(=O)n2Cc2ccccc2)C(C)C)cc1 (stereo not drawn) | pneumonia grade ≥3 (CTCAE) | human patients | intravenous, 13 mg/day |  | patients with adverse event | 0%
C=CC(=O)N1CCC([C@@H]2CCNc3c(C(N)=O)c(-c4ccc(Oc5ccccc5)cc4)nn32)CC1 |  | healthy human volunteers | oral, dose not given |  | TEAE contact dermatitis | 4.7%
Cc1cc(NC2CCN(C(=O)OC3CCN(C(=O)/C=C/CN(C)C)C3)CC2)n2ncc(C(C)C)c2n1 (stereo not drawn) | Phase I dose escalation CTCAE v4.0, item: dermatitis acneiform | patients with advanced solid tumours | dose not given, Total dosing any grade |  | patients with adverse event | 9%
COc1ncc(-c2nc3c(n2C(C)C)[C@H](c2ccc(Cl)cc2)N(c2cc(Cl)cn(C)c2=O)C3=O)c(OC)n1 | LC-MS/MS | human, plasma | oral, 15 mg, cycle 2 day 1, low-dose arm |  | Cmax | 118 ng/mL
COc1cc(Nc2ncc3c(n2)-c2ccc(Cl)cc2C(c2c(F)cccc2OC)=NC3)ccc1C(=O)O | population PK modelling | cancer patients East Asian, plasma | oral | relative to: non-East Asian | relative bioavailability increase | 48%
CC(C(=O)NCC(=O)NCC(CNC(=O)CNC(=O)C(C)N1CCN(CC(=O)[O-])CCN(CC(=O)[O-])CCN(CC(=O)[O-])CC1)(CNC(=O)CNC(=O)C(C)N1CCN(CC(=O)[O-])CCN(CC(=O)[O-])CCN(CC(=O)[O-])CC1)CNC(=O)CNC(=O)C(C)N1CCN(CC(=O)[O-])CCN(CC(=O)[O-])CCN(CC(=O)[O-])CC1)N1CCN(CC(=O)[O-])CCN(CC(=O)[O-])CCN(CC(=O)[O-])CC1.[Gd+3].[Gd+3].[Gd+3].[Gd+3] (stereo not drawn) |  | cynomolgus monkey, cerebrum | dose not given, day 5 |  | lanthanide concentration | 0.023 ± 0.011 nmol/g
CN(C)CCC(=O)Nc1ccc(C2CCCCC2)cc1 | liver microsome stability | human liver microsomes | 1 µM, without NADPH |  | hepatic clearance | 5.4 mL/min/kg
CCC(C)n1ncn(-c2ccc(N3CCN(c4ccc(OCC5COC(Cn6cncn6)(c6ccc(Cl)cc6Cl)O5)cc4)CC3)cc2)c1=O (stereo not drawn) |  | human, plasma | oral, dose not given, day 11 predose, geometric mean |  | trough plasma concentration | 29.9 ng/mL
CCc1c(-c2ccccc2)c(-c2ccccc2)nn1-c1ccccc1-c1cccc(OCC(=O)O)c1 |  | Sprague-Dawley rat, stomach homogenate | oral, 10 mg/kg, 8 h |  | concentration | 154 ng/mL and 119 ng/mL
Cc1ccc([C@@H]2O[C@H](CO)[C@@H](O)[C@H](O)[C@H]2O)cc1Cc1ccc(-c2ccc(F)cc2)s1 | item: inorganic phosphorus | Japanese type 2 diabetes patients | 25 mg, day 3, 24 h urine collection | relative to: baseline | urinary phosphate excretion change | -140 mg
Cc1noc(C)c1-c1cc(C(O)(c2ccccn2)c2ccccn2)c2nc(C3CC3)[nH]c2c1 |  | human patients, fasted, plasma | oral, 3 mg once daily, cycle 1 day 15, together with: enzalutamide once daily |  | Ctau | 8.8 ng/mL
CN(C)CCC(=O)Nc1ccc([C@H]2[C@@H](F)[C@@H](F)C[C@@H](F)[C@H]2F)cc1 | hepatocyte stability | cryopreserved rat hepatocytes | 1 µM |  | hepatic clearance | 28 mL/min/kg
CN(C)C(=O)c1cc2cnc(Nc3ccc(N4CCNCC4)cn3)nc2n1C1CCCC1 |  | human, expansion cohort, plasma | oral, 800 mg, day 8, together with: gemcitabine 1000 mg/m^2 |  | AUC(0-8h) | 9750 ng·h/mL
Cc1nc(-c2ccc(OCC(C)C)c(C#N)c2)sc1C(=O)O |  | KM mouse, chronic hyperuricaemia model | dose not given, day 5 |  | body weight | 29.2 g and 26 g and 30.8 g and 28.2 g and 31.1 g and 30.5 g
C=CC(=O)NC1CCN(c2ncc3ncnc(Nc4ccc(Oc5ccc6c(c5)ncn6C)c(C)c4)c3n2)CC1 | item: total radioactivity | healthy male volunteers, plasma | oral solution, 60 mg, together with: [14C]-labelled compound |  | AUC0–tz | 23.7 µM·h
O=C(Nc1ccc(Cl)cc1)Nc1ccc(Cl)c(Cl)c1 |  | cow whole milk | 200 nM | relative to: milk fat over skim milk | milk fat partition ratio | 158

Repeated from above:
SMILES | assay | system | setting | scale | endpoint | value
CC(C(=O)NCC(=O)NCC(CNC(=O)CNC(=O)C(C)N1CCN(CC(=O)[O-])CCN(CC(=O)[O-])CCN(CC(=O)[O-])CC1)(CNC(=O)CNC(=O)C(C)N1CCN(CC(=O)[O-])CCN(CC(=O)[O-])CCN(CC(=O)[O-])CC1)CNC(=O)CNC(=O)C(C)N1CCN(CC(=O)[O-])CCN(CC(=O)[O-])CCN(CC(=O)[O-])CC1)N1CCN(CC(=O)[O-])CCN(CC(=O)[O-])CCN(CC(=O)[O-])CC1.[Gd+3].[Gd+3].[Gd+3].[Gd+3] (stereo not drawn) |  | cynomolgus monkey, cerebrum | dose not given, day 5 |  | lanthanide concentration | 0.023 ± 0.011 nmol/g
CC(C)C[C@@H]1NC(=O)CN(C)C(=O)[C@H](Cc2ccccc2)NCc2ccc(n2C)CNC1=O | PAMPA | lecithin in dodecane | 100 µM, 17 h, pH 6.4, 37 °C |  | -log Pe | 5.93
Cn1nc2c(=O)n(C3CC3)cnc2c1[C@](O)(c1cnc(C(F)(F)F)c(Cl)c1)C(F)(F)F |  | humanized SCID mice, blood | 3 mg/kg once daily, 6 days, infected |  | AUC(0-96 h) | 90.8 µM·h
CCc1c(-c2ccccc2)c(-c2ccccc2)nn1-c1ccccc1-c1cccc(OCC(=O)O)c1 |  | Sprague-Dawley rat, stomach homogenate | oral, 10 mg/kg, 8 h |  | concentration | 154 ng/mL and 119 ng/mL
NC1(C(=O)N[C@@H](CCO)c2ccc(Cl)cc2)CCN(c2nc[nH]c3nccc2-3)CC1 |  | metastatic CRPC patients | dose not given, any grade, treatment-related, all doses, together with: enzalutamide 160 mg daily |  | incidence of Neutropenia | 13.3%
Cc1noc(C)c1-c1cc(C(O)(c2ccccn2)c2ccccn2)c2nc(C3CC3)[nH]c2c1 |  | human patients, fasted, plasma | oral, 3 mg once daily, cycle 1 day 15, together with: enzalutamide once daily |  | Ctau | 8.8 ng/mL
CNc1ccc(-c2nc3ccc(O)cc3s2)cc1 [carbon-11 labelled] | ex vivo biodistribution | APP/PS1 mouse, AD model, cerebellum | intravenous, 30 min |  | SUV | 0.173 ± 0.09
